Assay results of several laboratories.
Values joined by “and” are separate records of one study, mostly repeats; a detail may differ. Numbers after ± are the reported error.
Lysophospholipase-like protein 1: Lysophospholipase-like protein 1 (Mus musculus, UniProt Q3UFF7)
GRM4: Metabotropic glutamate receptor 4 (GRM4, Homo sapiens, UniProt Q14833)
E3 ubiquitin-protein ligase NEDD4: E3 ubiquitin-protein ligase NEDD4 (Homo sapiens, UniProt P46934)
RPA1 N-terminal domain: Replication protein A 70 kDa DNA-binding subunit, N-terminal domain (RPA1, Homo sapiens, UniProt P27694)
Grm2: Metabotropic glutamate receptor 2 (Grm2, Rattus norvegicus, UniProt P31421)

By UniProt entry, the sequences of proteins in these tests, tags left out. Where a name states a change or a piece, a line headed by the entry shows the natural chain unless it says otherwise. Residues count along the entry.
UniProt Q14833, 33-912 limits assumed: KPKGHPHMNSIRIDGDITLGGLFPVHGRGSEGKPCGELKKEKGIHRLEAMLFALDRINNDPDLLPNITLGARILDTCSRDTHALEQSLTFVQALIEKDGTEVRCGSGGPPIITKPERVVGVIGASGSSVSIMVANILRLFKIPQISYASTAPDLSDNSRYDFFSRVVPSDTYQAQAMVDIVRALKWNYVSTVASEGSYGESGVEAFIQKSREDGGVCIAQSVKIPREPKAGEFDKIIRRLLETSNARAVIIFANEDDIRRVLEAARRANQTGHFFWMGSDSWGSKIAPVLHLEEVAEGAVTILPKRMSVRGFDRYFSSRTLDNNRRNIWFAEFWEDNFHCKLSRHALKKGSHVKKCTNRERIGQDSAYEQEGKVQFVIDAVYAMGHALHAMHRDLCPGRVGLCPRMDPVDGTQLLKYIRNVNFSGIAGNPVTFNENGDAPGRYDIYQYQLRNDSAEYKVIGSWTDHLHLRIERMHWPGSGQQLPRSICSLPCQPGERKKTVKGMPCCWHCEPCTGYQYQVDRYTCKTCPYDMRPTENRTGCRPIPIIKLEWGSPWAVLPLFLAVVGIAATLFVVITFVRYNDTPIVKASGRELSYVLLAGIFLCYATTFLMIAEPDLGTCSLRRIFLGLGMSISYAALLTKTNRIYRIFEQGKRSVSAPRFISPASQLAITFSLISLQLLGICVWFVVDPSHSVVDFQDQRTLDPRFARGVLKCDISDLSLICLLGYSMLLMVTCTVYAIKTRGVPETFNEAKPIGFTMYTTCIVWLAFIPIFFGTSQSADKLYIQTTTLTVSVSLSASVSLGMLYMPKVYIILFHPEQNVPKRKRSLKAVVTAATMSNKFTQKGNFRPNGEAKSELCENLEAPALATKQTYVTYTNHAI
UniProt P46934, whole entry, looked up: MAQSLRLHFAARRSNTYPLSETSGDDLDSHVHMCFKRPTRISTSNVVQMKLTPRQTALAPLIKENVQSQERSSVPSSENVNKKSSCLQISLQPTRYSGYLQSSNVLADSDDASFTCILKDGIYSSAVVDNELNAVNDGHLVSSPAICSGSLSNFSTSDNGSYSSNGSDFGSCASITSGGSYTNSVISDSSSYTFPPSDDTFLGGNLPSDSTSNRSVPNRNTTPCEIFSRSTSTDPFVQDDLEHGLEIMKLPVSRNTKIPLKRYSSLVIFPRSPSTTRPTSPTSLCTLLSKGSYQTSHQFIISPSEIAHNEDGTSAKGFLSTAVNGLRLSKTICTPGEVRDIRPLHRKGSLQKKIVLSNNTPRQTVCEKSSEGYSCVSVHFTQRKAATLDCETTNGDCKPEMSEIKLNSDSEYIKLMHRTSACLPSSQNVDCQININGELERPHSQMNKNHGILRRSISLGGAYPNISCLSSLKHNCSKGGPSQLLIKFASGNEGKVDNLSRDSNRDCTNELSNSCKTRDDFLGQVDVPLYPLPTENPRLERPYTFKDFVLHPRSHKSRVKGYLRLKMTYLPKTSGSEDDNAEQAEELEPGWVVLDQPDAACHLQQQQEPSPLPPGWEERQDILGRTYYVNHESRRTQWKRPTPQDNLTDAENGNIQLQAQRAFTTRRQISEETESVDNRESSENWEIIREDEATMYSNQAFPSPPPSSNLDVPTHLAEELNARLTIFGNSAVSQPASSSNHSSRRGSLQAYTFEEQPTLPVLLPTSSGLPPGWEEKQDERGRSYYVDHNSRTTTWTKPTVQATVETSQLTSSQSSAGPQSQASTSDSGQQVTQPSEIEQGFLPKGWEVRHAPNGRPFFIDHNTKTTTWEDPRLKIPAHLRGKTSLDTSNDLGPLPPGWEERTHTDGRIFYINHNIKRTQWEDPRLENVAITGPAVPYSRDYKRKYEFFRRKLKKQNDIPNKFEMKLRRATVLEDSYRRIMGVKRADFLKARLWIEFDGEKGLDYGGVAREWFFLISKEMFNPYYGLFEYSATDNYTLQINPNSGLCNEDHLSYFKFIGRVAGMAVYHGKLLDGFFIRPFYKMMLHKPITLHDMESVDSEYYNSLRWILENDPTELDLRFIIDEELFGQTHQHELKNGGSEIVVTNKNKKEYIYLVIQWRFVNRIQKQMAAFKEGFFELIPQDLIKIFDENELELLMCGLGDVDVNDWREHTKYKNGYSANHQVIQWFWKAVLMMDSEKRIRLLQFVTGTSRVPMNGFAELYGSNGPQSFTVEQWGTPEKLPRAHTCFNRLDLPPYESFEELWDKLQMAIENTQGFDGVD
UniProt P05067, whole entry, looked up: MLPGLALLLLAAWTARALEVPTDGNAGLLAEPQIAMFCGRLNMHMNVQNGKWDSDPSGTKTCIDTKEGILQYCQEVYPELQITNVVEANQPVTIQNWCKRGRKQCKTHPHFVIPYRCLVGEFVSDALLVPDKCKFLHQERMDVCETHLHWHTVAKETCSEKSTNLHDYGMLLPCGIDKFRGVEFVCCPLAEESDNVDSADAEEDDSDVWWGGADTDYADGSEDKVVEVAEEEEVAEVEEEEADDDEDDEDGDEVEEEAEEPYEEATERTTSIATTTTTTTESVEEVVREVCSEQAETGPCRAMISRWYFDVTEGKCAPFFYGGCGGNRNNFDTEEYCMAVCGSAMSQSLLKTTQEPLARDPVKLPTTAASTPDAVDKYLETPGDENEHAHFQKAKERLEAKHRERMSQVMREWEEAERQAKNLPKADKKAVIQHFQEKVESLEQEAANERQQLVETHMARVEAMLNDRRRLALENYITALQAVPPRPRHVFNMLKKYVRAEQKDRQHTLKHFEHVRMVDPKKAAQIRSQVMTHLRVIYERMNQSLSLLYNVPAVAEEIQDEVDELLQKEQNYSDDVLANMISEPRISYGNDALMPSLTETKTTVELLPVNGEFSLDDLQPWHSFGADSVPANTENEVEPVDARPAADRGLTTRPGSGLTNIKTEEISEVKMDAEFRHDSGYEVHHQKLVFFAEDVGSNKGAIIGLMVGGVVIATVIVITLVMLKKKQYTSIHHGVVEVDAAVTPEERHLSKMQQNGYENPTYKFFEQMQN
UniProt Q07812, whole entry: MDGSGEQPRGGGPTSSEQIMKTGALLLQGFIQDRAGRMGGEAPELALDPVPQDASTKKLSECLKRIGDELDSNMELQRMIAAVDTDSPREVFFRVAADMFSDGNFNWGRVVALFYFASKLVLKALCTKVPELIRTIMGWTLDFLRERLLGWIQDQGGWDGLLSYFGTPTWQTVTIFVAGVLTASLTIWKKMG
UniProt O15151, 23-111 limits assumed: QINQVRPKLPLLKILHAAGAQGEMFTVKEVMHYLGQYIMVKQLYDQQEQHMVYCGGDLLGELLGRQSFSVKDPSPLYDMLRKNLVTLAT
UniProt P31424, 21-1203 limits assumed: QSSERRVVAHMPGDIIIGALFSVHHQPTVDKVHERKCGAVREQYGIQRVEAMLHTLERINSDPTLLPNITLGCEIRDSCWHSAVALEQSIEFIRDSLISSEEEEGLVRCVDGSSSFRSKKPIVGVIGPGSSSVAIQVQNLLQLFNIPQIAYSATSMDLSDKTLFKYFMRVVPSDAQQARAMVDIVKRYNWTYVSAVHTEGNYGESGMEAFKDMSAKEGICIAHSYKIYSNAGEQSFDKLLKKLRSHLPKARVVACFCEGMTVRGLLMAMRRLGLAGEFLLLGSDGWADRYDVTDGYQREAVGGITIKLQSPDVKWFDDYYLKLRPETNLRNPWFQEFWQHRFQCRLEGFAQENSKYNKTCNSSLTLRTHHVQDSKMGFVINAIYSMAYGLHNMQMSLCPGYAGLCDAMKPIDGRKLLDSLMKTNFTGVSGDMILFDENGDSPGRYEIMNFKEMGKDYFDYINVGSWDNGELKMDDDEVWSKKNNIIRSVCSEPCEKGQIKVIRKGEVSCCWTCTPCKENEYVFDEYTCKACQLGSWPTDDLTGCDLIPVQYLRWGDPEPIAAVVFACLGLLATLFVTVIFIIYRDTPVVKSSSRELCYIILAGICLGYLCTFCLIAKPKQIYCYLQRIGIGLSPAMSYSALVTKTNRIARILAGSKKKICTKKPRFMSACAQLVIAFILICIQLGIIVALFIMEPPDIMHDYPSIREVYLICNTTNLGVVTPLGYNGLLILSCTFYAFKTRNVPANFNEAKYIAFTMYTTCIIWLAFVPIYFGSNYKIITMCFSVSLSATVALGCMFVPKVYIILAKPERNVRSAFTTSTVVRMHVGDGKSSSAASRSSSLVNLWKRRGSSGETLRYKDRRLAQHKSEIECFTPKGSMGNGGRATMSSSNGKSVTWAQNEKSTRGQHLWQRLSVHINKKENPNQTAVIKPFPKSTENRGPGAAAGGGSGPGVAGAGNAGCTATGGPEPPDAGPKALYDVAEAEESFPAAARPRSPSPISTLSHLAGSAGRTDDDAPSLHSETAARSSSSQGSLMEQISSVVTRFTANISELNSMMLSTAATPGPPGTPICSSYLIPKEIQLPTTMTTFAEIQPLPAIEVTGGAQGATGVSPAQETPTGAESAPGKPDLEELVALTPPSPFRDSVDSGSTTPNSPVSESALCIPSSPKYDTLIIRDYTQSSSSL
UniProt P07900, 1-236 S52A limits assumed: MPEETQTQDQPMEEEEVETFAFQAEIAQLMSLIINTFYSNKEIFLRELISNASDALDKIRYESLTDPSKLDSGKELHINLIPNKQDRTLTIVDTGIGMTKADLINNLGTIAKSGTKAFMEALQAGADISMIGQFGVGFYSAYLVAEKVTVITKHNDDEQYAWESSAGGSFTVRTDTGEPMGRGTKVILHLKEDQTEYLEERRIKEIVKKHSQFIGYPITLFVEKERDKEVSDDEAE
UniProt Q8VIJ5, whole entry: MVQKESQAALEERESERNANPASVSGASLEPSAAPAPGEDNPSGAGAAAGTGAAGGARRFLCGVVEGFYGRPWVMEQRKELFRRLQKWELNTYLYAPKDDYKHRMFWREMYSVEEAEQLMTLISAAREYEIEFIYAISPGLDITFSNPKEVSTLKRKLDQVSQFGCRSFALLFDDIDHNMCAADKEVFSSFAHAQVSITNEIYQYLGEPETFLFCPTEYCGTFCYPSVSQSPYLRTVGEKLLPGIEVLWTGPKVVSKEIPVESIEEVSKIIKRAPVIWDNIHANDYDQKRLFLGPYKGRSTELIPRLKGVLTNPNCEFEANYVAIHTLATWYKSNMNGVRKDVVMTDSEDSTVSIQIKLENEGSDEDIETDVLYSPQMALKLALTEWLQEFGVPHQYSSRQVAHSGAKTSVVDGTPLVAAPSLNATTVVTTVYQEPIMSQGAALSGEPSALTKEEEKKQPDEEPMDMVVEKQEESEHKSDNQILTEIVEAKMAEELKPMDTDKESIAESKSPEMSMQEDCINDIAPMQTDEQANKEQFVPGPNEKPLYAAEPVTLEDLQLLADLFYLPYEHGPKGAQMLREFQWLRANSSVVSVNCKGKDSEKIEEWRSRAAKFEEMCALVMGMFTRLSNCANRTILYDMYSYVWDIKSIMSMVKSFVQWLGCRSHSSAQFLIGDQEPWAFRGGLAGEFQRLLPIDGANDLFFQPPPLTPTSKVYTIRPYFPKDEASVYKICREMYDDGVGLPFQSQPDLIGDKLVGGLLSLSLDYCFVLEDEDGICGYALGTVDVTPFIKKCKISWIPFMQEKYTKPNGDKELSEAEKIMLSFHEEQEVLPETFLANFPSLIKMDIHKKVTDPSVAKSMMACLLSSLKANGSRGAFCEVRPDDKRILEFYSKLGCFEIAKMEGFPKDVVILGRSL
UniProt O00748, whole entry, looked up: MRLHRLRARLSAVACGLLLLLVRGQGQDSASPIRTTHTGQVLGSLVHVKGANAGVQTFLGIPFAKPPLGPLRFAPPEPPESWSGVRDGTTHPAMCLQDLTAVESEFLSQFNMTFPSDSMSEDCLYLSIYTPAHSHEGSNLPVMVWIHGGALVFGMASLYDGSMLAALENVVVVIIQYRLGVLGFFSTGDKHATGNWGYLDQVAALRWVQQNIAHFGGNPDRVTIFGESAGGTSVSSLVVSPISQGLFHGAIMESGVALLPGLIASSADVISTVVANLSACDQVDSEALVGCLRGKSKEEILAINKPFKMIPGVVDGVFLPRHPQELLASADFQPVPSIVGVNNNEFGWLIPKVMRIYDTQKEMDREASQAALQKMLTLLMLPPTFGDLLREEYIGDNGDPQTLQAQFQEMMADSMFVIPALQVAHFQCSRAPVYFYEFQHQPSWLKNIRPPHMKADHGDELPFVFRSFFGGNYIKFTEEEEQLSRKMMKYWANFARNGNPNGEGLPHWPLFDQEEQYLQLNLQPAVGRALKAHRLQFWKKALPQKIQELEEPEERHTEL
UniProt Q923Y9, whole entry N287Y: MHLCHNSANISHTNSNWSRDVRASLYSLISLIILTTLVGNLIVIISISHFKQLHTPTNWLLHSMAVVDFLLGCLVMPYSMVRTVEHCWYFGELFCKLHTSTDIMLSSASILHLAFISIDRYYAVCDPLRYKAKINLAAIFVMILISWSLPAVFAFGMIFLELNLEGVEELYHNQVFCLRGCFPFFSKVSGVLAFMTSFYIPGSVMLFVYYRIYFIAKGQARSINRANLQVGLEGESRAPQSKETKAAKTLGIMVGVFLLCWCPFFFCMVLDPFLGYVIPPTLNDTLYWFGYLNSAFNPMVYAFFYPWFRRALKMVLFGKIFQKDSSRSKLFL

With `COC(=O)/C(=C/c1c[nH]c2ccc(C#N)cc12)c1ccc(F)cc1` the inhibition was 0% (Amyloid-beta precursor protein, Aβ1-40 (APP, Homo sapiens, UniProt P05067); Aβ40 aggregation, thioflavin T fluorescence; 25 µM).
With `Nc1nc(NCCc2ccc(Cl)cc2)nn1S(=O)(=O)c1ccc2ncsc2c1` the probe labelling was 1.6 fold (Lysophospholipase-like protein 1; activator, gel-based ABPP FP-rhodamine; relative to: DMSO).
Under “chemical shift perturbation”, `OC(CN1CCNCC1)Cn1c2ccccc2c2cc(Cl)ccc21` (centres unmarked) is recorded as 2.9 Hz (BAX (Homo sapiens, UniProt Q07812); ligand-observed 1H NMR; 100 µM, 10 µM BAX; relative to: compound without BAX).
For `COC(=O)[C@@]1(C)C=C(C(=O)Nc2cccc(C(=O)NC34CC(Nc5nccc(-c6cccnc6)n5)(C3)C4)c2)C(=O)CC1`, the remaining activity was 0.848 fraction of control (MAPK9 (Homo sapiens, UniProt P45984); enzyme activity, inhibitor; 0.006774 µM).
With `COc1ccc(NC(=O)CN2CCCN(S(=O)(=O)c3ccc(C)c(Cl)c3)CC2)c(OC)c1` the maximal response was 39.2 ± 1.2% (GRM4; calcium mobilization, positive allosteric modulator; CHO cells with Gqi5; with: glutamate; relative to: PHCCC maximal response).
`CC(C)(C)c1ccnc(NC(=O)c2ccc(-c3nn([C@@H]4CCCN(C(=O)C5CC5)C4)c4ncnc(N)c34)cc2)c1` gave a residence time of 2.4 ± 0.3 min (Tyrosine-protein kinase BTK, non-phosphorylated (BTK, Homo sapiens, UniProt Q06187); TR-FRET binding kinetics; 37 °C, unphosphorylated enzyme).
With `Cc1cc(NC(=O)c2cccc(NC(=O)C3=CC(C)(C)CC3=O)c2)ccc1Nc1nccc(-c2cccnc2)n1` the kon was 130000 M⁻¹ s⁻¹ (MAPK8 (Homo sapiens, UniProt P45983, C116S); surface plasmon resonance; 100, 300, 1000 nM, 1:1 binding model).
For `CCOC(=O)/C=C/CNCCN1c2ccccc2CCc2ccc(Cl)cc21`, “ubiquitination TR-FRET signal AUC” read 136000 a.u. and 137000 a.u. (E3 ubiquitin-protein ligase NEDD4; inhibitor, Ub-TR-FRET; 100 µM, 1 h preincubation, HECT domain, with: ATP 2 mM; higher = more ubiquitination).
For `Cc1[nH]c2cc(Cl)cc(Cl)c2c1CCn1cc(CNC(N)=O)nn1`, the Emax was 85.6% (GLP1R (Homo sapiens, UniProt P43220); cAMP accumulation, positive allosteric modulator, HTRF; 0.6 µM, crude reaction product, with: GLP-1(9-36) at EC20; relative to: BETP).
`CC(C)Oc1cc(C#N)ccc1C1=N[C@@H](c2cccc(Cl)c2)[C@@H](c2ccc(Cl)cc2)N1C(=O)N1CCNC(=O)C1` gave a ΔG of -8.6 ± 0.2 kcal/mol (Protein Mdm4 (MDM4, Homo sapiens, UniProt O15151); isothermal titration calorimetry; 298 K).
With `O=C(Nc1ccc(F)c(F)c1)C12CC1/C(=N\O)c1ccccc1O2` (centres unmarked) the response was 110 ± 27.4% (GRM4; positive allosteric modulator, calcium mobilization; CHO expressing Gqi5; concentration not given, with: glutamate EC20; relative to: glutamate 1 mM).
For `CCCN(C(=O)C1CCN(S(=O)(=O)c2ccc3[nH]ncc3c2)CC1)[C@@H]1CCc2ccccc21`, the potentiation was 73 ± 4% (CHRM5 (Homo sapiens, UniProt P08912); positive allosteric modulator, calcium mobilization; CHO cells expressing human M5; with: acetylcholine EC20; relative to: ACh maximum).
The response of `O=C(Nc1cccc(F)c1)C12CC1/C(=N\O)c1ccccc1O2` (centres unmarked) is reported as 90.4 ± 7.8% (GRM4; positive allosteric modulator, calcium mobilization; CHO expressing Gqi5; concentration not given, with: glutamate EC20; relative to: glutamate 1 mM).
`OC1CCN(c2ncc(-c3cc4ccc(F)cc4[nH]3)cn2)CC1` [isotope labelled] gave a Bmax of 140 ± 50 nM (Alpha-synuclein, aggregated (SNCA, Homo sapiens, UniProt P37840); binding; Parkinson's disease brain homogenate).
The ligand efficiency of `Cc1ccc(C(=O)Nc2ccc(F)cc2C(=O)O)cc1S(=O)(=O)Nc1ccc(Br)cc1` is reported as 0.2 (RPA1 N-terminal domain; binding, fluorescence polarisation competition; with: FITC-ATRIP probe).
`CCOC(=O)/C=C/CNCCCCN1c2ccccc2CCc2ccc(Cl)cc21` — result for “ubiquitination TR-FRET signal AUC”: 609000 a.u. (E3 ubiquitin-protein ligase NEDD4-like (NEDD4L, Homo sapiens, UniProt Q96PU5); inhibitor, Ub-TR-FRET; 33.33 µM, 1 h preincubation, DMSO up to 2%, with: ATP 2 mM; higher = more ubiquitination).
`NCCOCCOCCNC(=O)[C@@H]1CCCCNC(=O)[C@H](Cc2ccc([N+](=O)[O-])cc2)NC(=O)[C@H](Cc2ccco2)NC(=O)C[C@H](O)[C@H](CC2CCCCC2)NC(=O)/C=C\C(=O)N1` — result for “enzyme activity increase”: 300% (KDR (Homo sapiens, UniProt P35968); activator, Z'-LYTE; 100 µM).
`Cc1ccc(C(=O)Nc2cc(F)ccc2C(=O)O)cc1S(=O)(=O)Nc1cccc(Cl)c1` gave a ligand efficiency of 0.21 (RPA1 N-terminal domain; binding, fluorescence polarisation competition; with: FITC-ATRIP probe).
The maximal response of `N#Cc1cnc(Nc2nc3ccccc3o2)nc1-c1ccc(Cl)cc1` is reported as 2.5 ± 0.5% (Grm5 (Rattus norvegicus, UniProt P31424); calcium mobilization, negative allosteric modulator; with: glutamate EC80; relative to: glutamate maximum).
For `Cc1nc2ccc(S(=O)(=O)n3nc(NCCc4ccc(Cl)cc4)nc3N)cc2s1`, the probe labelling was 1.1 fold (Lysophospholipase-like protein 1; activator, gel-based ABPP FP-rhodamine; relative to: DMSO).
For `NC(=O)c1cn(-c2ccc(F)cc2)c2ccc(CCc3ccncc3)cc2c1=O`, the response was 1.88 ± 0.38% (Grm2; calcium mobilization, negative allosteric modulator; 30 µM, with: glutamate 100 µM; relative to: glutamate maximum).
The relative Vmax of `NCCCNCCCCNCCCNCc1ccccn1` is reported as 0.108 (Smox (Mus musculus, UniProt Q99K82); substrate; relative to: spermine).
With `C/C=C/Cn1c(Cc2cc(OC)c(OC)c(OC)c2)nc2c(N)ncnc21` the TΔS was -4.16 ± 0.19 kcal/mol (Heat shock protein HSP 90-alpha, N-terminal domain (HSP90AA1, Homo sapiens, UniProt P07900, S52A); isothermal titration calorimetry; 298 K, N-terminal domain S52A).
Under “ubiquitination TR-FRET signal AUC”, `CCOC(=O)/C=C/CNCCCCCN1c2ccccc2CCc2ccc(Cl)cc21` is recorded as 16100 a.u. and 16000 a.u. and 15800 a.u. (E3 ubiquitin-protein ligase NEDD4; inhibitor, Ub-TR-FRET; 100 µM, 1 h preincubation, HECT domain, with: ATP 2 mM; higher = more ubiquitination).
`CC(=O)N[C@H]1[C@@H](O[C@H](C)[C@H](N)C(=O)O)O[C@H](CO)[C@H](O)[C@@H]1O` has a -TΔS of 4.6 ± 0.2 kcal/mol (CLEC10A, carbohydrate recognition domain (Homo sapiens, UniProt Q8IUN9); binding, ITC; 293 K).
`COc1ccc(NC(=O)CN2CCCN(S(=O)(=O)c3ccc(F)cc3)CC2)c(OC)c1` gave a maximal response of 27.6 ± 1.3% (GRM4; calcium mobilization, positive allosteric modulator; CHO cells with Gqi5; with: glutamate; relative to: PHCCC maximal response).
For `CC(=O)Nc1ncc(CN2CC[C@H](Oc3cccc(F)n3)C[C@@H]2C)s1` [isotope labelled], the Bmax was 32.6 ± 9.8 nM (Protein O-GlcNAcase (Rattus norvegicus, UniProt Q8VIJ5); saturation binding; rat hippocampus homogenate; radiolabelled compound).
`Cc1nc(-c2ccc(OCC(C)C)c(C#N)c2)sc1C(N)=O` has an efficacy of 117 ± 9.1% (Grm2; thallium flux, positive allosteric modulator; HEK293 GIRK; with: glutamate EC20; relative to: glutamate max).
`CSCC[C@H](NC(=O)[C@H](CC(C)C)NC(=O)[C@H](CC(N)=O)NC(=O)c1ccccc1N)C(=O)N[C@@H](CCCCN)C(=O)N[C@@H](CCCCN)C(=O)N[C@@H](CO)C(=O)N[C@H](C(=O)N[C@@H](CCCCNc1ccc([N+](=O)[O-])cc1[N+](=O)[O-])C(N)=O)[C@@H](C)O` has a kcat/Km of 22000 M⁻¹ s⁻¹ (Mitochondrial intermediate peptidase (MIPEP, Homo sapiens, UniProt Q99797); substrate, FRET peptide hydrolysis).
The KI of `CCN(CC)C(=O)Oc1ccccc1C=C1Cc2cc(OC)c(OC)cc2C1=O` is reported as 6.43 nM (Cocaine esterase (CES2, Homo sapiens, UniProt O00748); inactivator).
Under IC50, `Cc1cc(SCc2sc(-c3ccc4cn[nH]c4c3)nc2C)ccc1OCC(=O)O` is recorded as “inactive” (Vitamin D3 receptor (VDR, Homo sapiens, UniProt P11473); reporter gene, antagonist; HEK-293T; up to 100 µM, CYP24A1 promoter luciferase, with: 1,25(OH)2D3 10 nM).
With `NCC(c1ccc(O)cc1)c1ccc(Oc2ccccc2)cc1` (centres unmarked) the efficacy increase was 12% (Trace amine-associated receptor 1 (Rattus norvegicus, UniProt Q923Y9, N287Y); cAMP production, agonist; mutant; relative to: wild type).

For quick reference, copied from above:
Under “chemical shift perturbation”, `OC(CN1CCNCC1)Cn1c2ccccc2c2cc(Cl)ccc21` (centres unmarked) is recorded as 2.9 Hz (BAX (Homo sapiens, UniProt Q07812); ligand-observed 1H NMR; 100 µM, 10 µM BAX; relative to: compound without BAX).
For `CC(=O)Nc1ncc(CN2CC[C@H](Oc3cccc(F)n3)C[C@@H]2C)s1` [isotope labelled], the Bmax was 32.6 ± 9.8 nM (Protein O-GlcNAcase (Rattus norvegicus, UniProt Q8VIJ5); saturation binding; rat hippocampus homogenate; radiolabelled compound).
For `Cc1nc2ccc(S(=O)(=O)n3nc(NCCc4ccc(Cl)cc4)nc3N)cc2s1`, the probe labelling was 1.1 fold (Lysophospholipase-like protein 1; activator, gel-based ABPP FP-rhodamine; relative to: DMSO).
